Experimental data collected from several papers.
Numbered parts are unrelated; each lists some results of a single study. Substitutions count along the parent as printed.

Sample 1 — target: UBE2D2 UBC core domain (UniProt P62837); technique: yeast two-hybrid; medium: yeast; notes: mostly zero background; reference: not given; direction: higher = stronger interaction
Chain of UniProt P62837 (whole entry, looked up): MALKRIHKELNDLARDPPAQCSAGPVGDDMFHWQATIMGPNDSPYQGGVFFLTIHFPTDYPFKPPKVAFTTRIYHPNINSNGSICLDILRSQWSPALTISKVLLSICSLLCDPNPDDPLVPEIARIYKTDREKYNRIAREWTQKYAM
B1: RNF32 RING domain (UniProt Q9H0A6); chain VQALRRETHECSICLAPLSAAGGQRVGAGRRSREMALLSCSHVFHHACLLALEEFSVGDRPPFHACPLCRSCYQKKILEC
B2: RNF17 RING domain (UniProt Q9BXT8); chain SQPWGAAEIQCTRCGRRVSRSSGHHCELQCGHAFCELCLLMTEECTTIICPDCEVATAVNTRQR
B3: RNF7 RING domain (UniProt Q9UBF6); chain AICRVQVMDACLRCQAENKQEDCVVVWGECNHSFHNCCMSLWVKQNNRCPLCQQDWVVQRIGK
Molecule | lacZ reporter activity
B1 (RNF32 RING domain) | 0
MEEMEEELKCPVCGSFYREPIILPCSHNLCQACARNILVQTPESESPQSHRAAGSGVSDY (TRIM9 RING domain (UniProt Q9C026)) | 0
B2 (RNF17 RING domain) | 0
B3 (RNF7 RING domain) | 0
PLRRLQEEKLCKICMDRHIAVVFIPCGHLVTCKQCAEAVDRCPMCSAVIDFKQRVF (BIRC8 RING domain (UniProt Q96P09)) | 0

Sample 2 — technique: competition protein-binding microarray; form: double-stranded DNA, one strand shown; medium: in vitro; tested at: 2 µM; together with: Pho4 competitor, 0.05 µM; direction: higher = stronger binding
Target: Centromere-binding protein 1, full length, His-tagged (CBF1, Saccharomyces cerevisiae, UniProt P17106, residues 1-351)
Chain of UniProt P17106 (whole entry, looked up): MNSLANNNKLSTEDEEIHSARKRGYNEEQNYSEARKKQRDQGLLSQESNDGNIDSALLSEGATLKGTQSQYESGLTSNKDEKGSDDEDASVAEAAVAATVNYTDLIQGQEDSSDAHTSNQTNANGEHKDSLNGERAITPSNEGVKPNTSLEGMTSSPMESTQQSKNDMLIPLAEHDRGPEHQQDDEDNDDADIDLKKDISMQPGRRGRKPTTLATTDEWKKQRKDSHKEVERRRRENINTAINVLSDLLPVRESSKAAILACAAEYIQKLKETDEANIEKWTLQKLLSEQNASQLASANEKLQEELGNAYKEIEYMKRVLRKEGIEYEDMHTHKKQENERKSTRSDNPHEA
Notes: whole 60-bp probe, lowest competitor level
Sequence | fluorescence intensity [a.u.]
GGTTTATTTGGATCGCACGTGGCAATAGTGATGAGAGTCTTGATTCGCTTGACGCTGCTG | 1420
AATGATGTGCTTGTCATCGTGGGTAACTTCACCAGCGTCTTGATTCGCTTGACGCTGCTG | 76
CCTTAATAGGCGAGTCACGTGGAATGGTAGAACCGAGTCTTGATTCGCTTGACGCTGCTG | 5300
CACTGAGTACTTCCTCACCTGATCCAATCGATTTAAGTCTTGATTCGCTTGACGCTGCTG | 241
TTTAGTAATAATAATGATTTAATTAATGATAGTATAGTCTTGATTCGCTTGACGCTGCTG | 96.1
AAATTACTAAGTTGTCCAGTGGGTGACGCCGTATGAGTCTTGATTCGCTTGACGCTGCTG | 54.7
CTTTCCCGATCTTTTCACGTGTTCTTAGCACATTTGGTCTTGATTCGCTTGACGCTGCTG | 1240
CTAACGAAGGTTTGGGCAGTGGGTGACAAGCCAAGTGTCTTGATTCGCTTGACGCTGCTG | 70.2

Sample 3 — target: CCNE2, cyclin fold, Cln2 fusion (human); technique: yeast growth competition, sequencing; medium: yeast; notes: strong parent motif; reference: not given; direction: higher = stronger binding
Starting sequence: viral docking peptide; KGVKRKLFAEDSS; partner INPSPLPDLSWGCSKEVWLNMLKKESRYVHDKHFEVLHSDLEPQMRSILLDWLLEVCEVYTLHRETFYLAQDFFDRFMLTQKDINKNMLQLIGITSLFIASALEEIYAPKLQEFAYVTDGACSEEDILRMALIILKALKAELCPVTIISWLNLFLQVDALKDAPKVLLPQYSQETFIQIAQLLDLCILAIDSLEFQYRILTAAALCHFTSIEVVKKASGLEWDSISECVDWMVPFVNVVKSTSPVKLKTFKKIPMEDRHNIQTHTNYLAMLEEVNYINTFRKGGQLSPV
Variant | normalised enrichment score
D11L | 5.3
D11S | 6.61
E10H | 5.18
S12T | 6.88
K6M | 5.15
K4Y | 1.29
L7T | 0.539
G2V | 5.33
L7C | 0.461
G2F | 5.53
S12V | 6.95
R5Q | 0.833
V3F | 5.38
F8P | 0.667
K6F | 1.81
G2Q | 6.23
A9S | 6.58
S12L | 6.79
V3L | 1.27
K4P | 1.83
K6L | 3.12
K6C | 4.02
L7V | 0.834
E10K | 3.81
K4A | 5.3

Sample 4 — technique: RNA Bind-n-Seq; form: RNA; medium: in vitro; tested at: 90 pmol; notes: 4-mer, random 30-nt RNA, single round; reference: input library; direction: higher = stronger binding
Target: ATP-dependent RNA helicase DDX3X, helicase core (DDX3X, Homo sapiens, UniProt O00571, residues 132-607)
Chain of UniProt O00571 (132-607, looked up): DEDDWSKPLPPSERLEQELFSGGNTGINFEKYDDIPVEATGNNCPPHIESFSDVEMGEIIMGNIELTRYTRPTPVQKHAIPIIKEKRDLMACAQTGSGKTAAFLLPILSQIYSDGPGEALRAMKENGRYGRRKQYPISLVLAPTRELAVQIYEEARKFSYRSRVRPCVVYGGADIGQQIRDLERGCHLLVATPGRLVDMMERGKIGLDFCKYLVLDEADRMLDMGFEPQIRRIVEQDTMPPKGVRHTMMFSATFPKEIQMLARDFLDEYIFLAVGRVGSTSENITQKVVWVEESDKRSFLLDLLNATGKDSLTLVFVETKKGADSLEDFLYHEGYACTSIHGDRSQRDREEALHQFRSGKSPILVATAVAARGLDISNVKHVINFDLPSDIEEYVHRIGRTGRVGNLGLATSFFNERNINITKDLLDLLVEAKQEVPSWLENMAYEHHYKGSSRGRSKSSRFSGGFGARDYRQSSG
Together with: 3 µM iPr-DMDA-PatA, 2 mM ADP, 2 mM phosphate
Sequence | 4-mer enrichment [fold]
GUAU | 1.03
GUAC | 0.901
GGCG | 0.778
UUCG | 0.841
UGUA | 1.08
GACU | 0.976
AAAC | 1.42
CGUC | 0.964

Sample 5 — observed: peptide-MHC binding; form: peptide; tested at: concentration not given
Target: HLA class I histocompatibility antigen, A alpha chain, allele A*26:03 (Homo sapiens, UniProt P04439)
Molecule | binding
LTFLDCLYY | inactive
RSLFNTVAVLY | inactive
IEVKFHPIL | inactive
YHRPLTGYM | inactive
DTWHGFKNM | active

Repeated from above (sample 5):
Molecule | binding
LTFLDCLYY | inactive
RSLFNTVAVLY | inactive
IEVKFHPIL | inactive
YHRPLTGYM | inactive
DTWHGFKNM | active
